Measurements gathered from unrelated publications.
Numbered parts are unrelated; each lists some results of a single study.

Sample 1 — technique: RNA Bind-n-Seq; form: RNA; matrix: in vitro; tested at: 1 µM; notes: whole 134-nt RNA, ends assumed; added: 150 mM KCl; relative to: input library; reading: higher = stronger binding; endpoint: log2 enrichment
Target: Ras GTPase-activating protein-binding protein 1, C-terminal RGG region (G3BP1, Homo sapiens, UniProt Q13283)
UniProt Q13283, sequence (whole entry, looked up): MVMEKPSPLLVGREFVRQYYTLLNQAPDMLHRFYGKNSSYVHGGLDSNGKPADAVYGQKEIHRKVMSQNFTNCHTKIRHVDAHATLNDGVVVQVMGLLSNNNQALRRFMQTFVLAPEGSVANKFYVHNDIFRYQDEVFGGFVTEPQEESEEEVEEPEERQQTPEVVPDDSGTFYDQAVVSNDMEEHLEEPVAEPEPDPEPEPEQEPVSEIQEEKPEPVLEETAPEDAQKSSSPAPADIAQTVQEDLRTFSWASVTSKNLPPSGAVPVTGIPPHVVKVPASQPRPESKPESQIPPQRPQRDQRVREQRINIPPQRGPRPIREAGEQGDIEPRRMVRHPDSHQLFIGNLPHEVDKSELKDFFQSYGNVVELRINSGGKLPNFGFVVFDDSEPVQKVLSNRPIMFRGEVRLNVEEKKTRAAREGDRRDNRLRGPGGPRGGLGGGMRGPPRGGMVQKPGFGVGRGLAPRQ
GGGAGUUCUACAGUCCGACGAUCAGUCCUGUGCUACACAUCGUAUGUACCGAAUCGGGAAAAAAAGGGUUUUUGGGAGGGAAAGUAUUAUGUUACGCCGUUCGGAUCUGCACUUGGAAUUCUCGGGUGUCAAGG: 0.302
GGGAGUUCUACAGUCCGACGAUCUUUGGCAAUGAGAUCUAAACCAGACAAAGACCUCCUUAUGGAAGAAGAUGACAUGGCCUUGGCAAAUGUAGUCAUGCAGGAAGCUCAGAAUGGAAUUCUCGGGUGUCAAGG: -1.55
GGGAGUUCUACAGUCCGACGAUCUGGCCCGGGUGGCAUGCGGGGAGGAAGAGGUGGCCUCAUGGAUCGUGGUGGUCCCGGUGGAAUGUUCAGAGGUGGCCGUGGUGGAGACAGUGGAAUUCUCGGGUGUCAAGG: 2.12
GGGAGUUCUACAGUCCGACGAUCCUGUGCUACACAUCGUAUGUACCGAAUCGGCCCCCCCGGGCCCCCCCGGGGCCCCCCCGGGAAAGUAUUAUGUUACGCCGUUCGGAUCUGUGGAAUUCUCGGGUGUCAAGG: -1.95

Sample 2 — technique: RNA Bind-n-Seq; form: RNA; matrix: in vitro; tested at: 100 nM; relative to: input RNA pool; reading: higher = stronger binding; endpoint: bound/input enrichment
Target: RING finger protein unkempt homolog, zinc fingers 1-6, SBP tag (UNK, Homo sapiens, UniProt Q9C0B0, residues 30-357)
UniProt Q9C0B0, sequence (30-357, looked up): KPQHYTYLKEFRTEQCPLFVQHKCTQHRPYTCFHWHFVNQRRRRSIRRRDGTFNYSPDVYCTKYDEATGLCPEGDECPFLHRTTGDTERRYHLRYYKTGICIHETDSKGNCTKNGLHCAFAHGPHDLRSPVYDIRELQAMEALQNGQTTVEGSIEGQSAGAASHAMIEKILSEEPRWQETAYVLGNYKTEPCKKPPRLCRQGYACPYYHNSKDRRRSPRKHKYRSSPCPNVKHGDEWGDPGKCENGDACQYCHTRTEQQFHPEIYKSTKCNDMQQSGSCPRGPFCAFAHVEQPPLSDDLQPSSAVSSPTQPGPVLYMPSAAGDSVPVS
Notes: RNA with constant flanks, vertebrate orthologous sites, ends assumed
GGGAGUUCUACAGUCCGACGAUCGUUCUUAUUACACUCUUCUAGGGAAGAGAUGAACUGGGGAAAACUCUCCUUUUUAUAGAUUAAUUUGUCUCUAAAUUAUGACCAAAAAUAUUUUGCUAUUUCUUUAUAUAUGCACAUUUUCAACAGAGGAUUGAGCAUCA: 0.569 ratio
GGGAGUUCUACAGUCCGACGAUCAAUUGAAUAAAAACAUUUCCACUGGGUUUUGCCUGUAAGAAAAAAAUGUACCCGAGCCCAUAGAGCUUUUUAAUAAUAGCACUAACCAAUGCCUUUUUAGAUGUAUUUUUGAUGUAUAUACAACAGAGGAUUGAGCAUCA: 1.51 ratio
GGGAGUUCUACAGUCCGACGAUCCGCAUGAGCAUCUAUCCAGUUUUAAGCCACUUCCUGAUAAGGCUCUCCAUGUAUUUAUCCUAUUGACACACCUGUUUUUAUGAAUGGCAGUGUGCGUGCAGAGGGGCUCGGUGUUUACAGCAACAGAGGAUUGAGCAUCA: 0.848 ratio

Sample 3 — technique: universal PBM; form: double-stranded DNA, one strand shown; matrix: in vitro; tested at: not given; reading: higher = stronger binding; endpoint: E-score
Target: Sal-like protein 4, full length isoform B (SALL4, Homo sapiens, UniProt Q9UJQ4-2, residues 1-616)
Notes: 8-mer, flanks averaged, mean of replicates
AAGGCGAA: -0.107
GCATCATA: 0.323
CAAGTGTG: 0.137
CATTCGGA: 0.0262
CTAGATTA: 0.228
CGTTCGGC: -0.186
ACGGTGCA: -0.0336

Mixed results
PhoQ, residues 284 288 289 292 302 303 SNGLAW
fold induction (PhoP, residues 12 14 15 18 19 NMSSL (Escherichia coli, UniProt P23836); Sort-seq, measured: YFP reporter; E. coli; PhoQ-PhoP variant library, added: 10 µM Mg2+; relative to: high Mg2+ state, higher = stronger signaling): 7.4

Some of these lines once more (sample 1):
GGGAGUUCUACAGUCCGACGAUCUUUGGCAAUGAGAUCUAAACCAGACAAAGACCUCCUUAUGGAAGAAGAUGACAUGGCCUUGGCAAAUGUAGUCAUGCAGGAAGCUCAGAAUGGAAUUCUCGGGUGUCAAGG: -1.55
GGGAGUUCUACAGUCCGACGAUCUGGCCCGGGUGGCAUGCGGGGAGGAAGAGGUGGCCUCAUGGAUCGUGGUGGUCCCGGUGGAAUGUUCAGAGGUGGCCGUGGUGGAGACAGUGGAAUUCUCGGGUGUCAAGG: 2.12
